Literature values that unrelated publications cite.
Compare with care: the assays were run in different laboratories. ± marks the error that the study gave. Values after ≈ are worked out from the molar mass of the structure shown.

| SMILES | target or system | test | system | conditions | how to read | measurement | value |
| --- | --- | --- | --- | --- | --- | --- | --- |
| COCCOCCOCCOCCC(=O)NCc1cc(CNC(=O)CCOCCOCCOCCOC)cc(-c2cc3cc4nc(c(OC)c5[nH]c(cc6nc(cc2[nH]3)CC6(C)C)cc5-c2cc(CNC(=O)CCOCCOCCOCCOC)cc(CNC(=O)CCOCCOCCOCCOC)c2)CC4(C)C)c1 |  |  | DMF | room temperature |  | Qy/B absorption intensity ratio | 0.86 |
| CC(C)S(=O)(=O)c1ccc(S(=O)(=O)C(C)C)c(O)c(=O)c1O |  |  |  |  |  | pKa1 | 2.2 |
| CCC1=C(O)c2c(oc(-c3ccc4ccccc4c3)cc2=O)C(CC)(CC)C1=O | MCF7 | cell growth, SRB |  |  |  | IC50 | 1.42 µM |
| FC1(F)[C@H]2O[C@@H]1[C@H](COCc1ccccc1)[C@@H](COCc1ccccc1)O2 |  |  |  | pH 7.4 |  | hydrolytic half-life | > 30 days |
| CC(=O)N1CCC(NC(=O)NC23CC4CC(C)(CC(C2)c2ccccc24)C3)CC1 |  |  | human liver microsomes | 60 min |  | remaining compound | 1% |
| Oc1cccc(-c2cccc(O)n2)n1.[Cl-].[Cl-].[Ru+2].c1cnc2c(c1)c1c(c3cccnc32)OCCO1.c1cnc2c(c1)c1c(c3cccnc32)OCCO1 |  |  |  |  |  | pKa2 | 6.8 |
| O=C(NC1CCOCC1)c1csc([C@@H]2C[C@H]2NCC2CC2)c1 (relative stereo) |  | clinical trial | human |  |  | tolerability | not toxic |
| O=C([O-])CN1CCN(CC(=O)[O-])CCN(Cc2cc(C#Cc3ccc(OCC(=O)O)cc3)cc(C(=O)[O-])n2)CCN(CC(=O)[O-])CC1.[Eu+3] |  |  |  |  |  | Eu3+ emission quantum yield | 0.17 |
| COC(=O)c1cc(=O)n(C)c2cc(-c3ccc(OC)cc3)sc12 |  |  | dichloromethane | 10 µM |  | absorption maximum | 400 nm |
| CC(C)CC(CC(C)C)NC(=O)[C@H](Cc1cnc[nH]1)NC(=O)CNC(=O)[C@@H](NC(=O)[C@H](C)NC(=O)[C@H](Cc1c[nH]c2ccccc12)NC(=O)[C@H](CCC(N)=O)NC(=O)[C@@H](Cc1ccccc1)NC(=O)COCC(=O)Nc1ccc(CNC(=O)CN2CCN(CC(=O)O)CCN(CC(=O)O)CCN(CC(=O)O)CC2)cc1)C(C)C [gallium-68 labelled] |  |  | nude mice, PC-3 tumour xenograft, tumor | 250 pmol |  | tissue uptake | ~10 %ID/g |
| Cc1ccccc1-c1cc(N2CCNCC2)ncc1N(C)C(=O)C(C)(C)c1cc(C(F)(F)F)cc(C(F)(F)F)c1 |  |  | healthy volunteers, plasma | oral, 450 mg, single dose, given alone |  | AUC(0-inf) | 8180 ng·h/mL |
| C=C[C@@H]1C[C@]1(NC(=O)[C@@H]1C[C@@H](Oc2ncc(OC)c3ccccc23)CN1C(=O)[C@@H](NC(=O)OC(C)(C)C)C(C)(C)C)C(=O)NS(=O)(=O)C1CC1 |  |  | rat | 30 mg/kg |  | AUC | 0.37 µM·h |
| CCCN1CC(c2ccc(S(C)(=O)=O)cc2)=C(c2ccc(C(=O)O)cc2)C1=O |  |  | renal insufficiency patients | dose not given | relative to: healthy subjects | exposure | increased |
| CCOc1ccc(NC(=S)N(CCO)Cc2cc3cc(C)cc(C)c3[nH]c2=O)cc1 |  |  | mouse | oral |  | oral bioavailability | 21% |
| CN1CCC(C)(C)c2cc3c(-c4ccc(C(=O)N5CCCCC5)s4)c4ccc(=[N+](C)C)cc-4sc3cc21 |  |  | methanol |  |  | molar extinction coefficient | 83100 M⁻¹ cm⁻¹ |
| Cc1ccccc1-c1cc(N2CC[N+](C)([O-])CC2)ncc1N(C)C(=O)C(C)(C)c1cc(C(F)(F)F)cc(C(F)(F)F)c1 |  |  | healthy volunteers, plasma | oral, dose not given, netupitant-palonosetron, fasted |  | Cmax | 202 ng/mL |
| CC(=O)O[C@H]1C2=C(C(=O)C(O)=C(C(C)C)C2=O)[C@@]2(C)CCCC(C)(C)[C@@H]2[C@@H]1OC(=O)c1ccc([N+](=O)[O-])cc1 | MCF7 | cell growth |  |  |  | GI50 | 5 to 10 µM |

| SMILES | target or system | test | system | conditions | how to read | measurement | value |
| --- | --- | --- | --- | --- | --- | --- | --- |
| Cc1cccc(-c2cccc(C)n2)n1.[Ru+2].c1ccc(-c2cccc(-c3ccccn3)n2)nc1.c1ccncc1 |  |  | water | concentration not given |  | ligand exchange quantum yield | 0.41 |
| CC(C)OC(=O)[C@H](CO)NCc1cc(Cl)c(OCc2cccc(-c3ccccc3)c2Br)cc1OCc1cccnc1 |  |  | human liver S9 | 40 min |  | transformation | 100% |
| O=C(CCCCC[N+]#[C][99Tc-5]([C]#[N+]CCCCCC(=O)N[C@H]1C(O)O[C@H](CO)[C@@H](O)[C@@H]1O)([C]#[N+]CCCCCC(=O)N[C@H]1C(O)O[C@H](CO)[C@@H](O)[C@@H]1O)([C]#[N+]CCCCCC(=O)N[C@H]1C(O)O[C@H](CO)[C@@H](O)[C@@H]1O)([C]#[N+]CCCCCC(=O)N[C@H]1C(O)O[C@H](CO)[C@@H](O)[C@@H]1O)[C]#[N+]CCCCCC(=O)N[C@H]1C(O)O[C@H](CO)[C@@H](O)[C@@H]1O)N[C@H]1C(O)O[C@H](CO)[C@@H](O)[C@@H]1O (stereo partly drawn) |  |  | mouse A549 xenograft |  |  | tumour/muscle ratio | 29.7 ± 3.12 |
| CC(C)c1cnc(-c2cc(Cl)ccc2F)cc1Nc1ccncc1C(=O)NC(CO)CO |  |  | rat | repeat-dose toxicity, twice daily |  | dose with liver findings | ≥ 20 mg/kg |
| CN1CCc2nc(C(=O)N[C@@H]3C[C@@H](C(=O)N(C)C)CC[C@@H]3NC(=O)C(=O)Nc3ccc(Cl)cn3)sc2C1 |  |  | human |  |  | share of total clearance by metabolism | ~10% |
| CC(C)(C)C1=CC(=NNC(=O)c2ccncc2)C=C(C(C)(C)C)C1=O |  |  |  | pH 7.4 |  | logD | 3.9 |
| C=CC(OS(=O)(=O)O)c1ccc(OC)cc1 (stereo not drawn) |  | sulfonation, substrate | human liver |  |  | Km | 727 µM |
| CC(=O)N[C@H](CC(=O)O)C(=O)N[C@H](Cc1c[nH]c2ccccc12)C(=O)N[C@H](Cc1ccccc1)C(=O)N[C@H](CCCCN)C(=O)N[C@H](C)C(=O)N[C@H](Cc1ccccc1)C(=O)N[C@H](Cc1ccc(O)cc1)C(=O)N[C@H](CC(=O)O)C(=O)N[C@H](CCCCN)C(=O)N[C@@H](C(=O)N[C@H](C)C(=O)N[C@H](CCC(=O)O)C(=O)N[C@H](CCCCN)C(=O)N[C@H](Cc1ccccc1)C(=O)N[C@H](CCCCN)C(=O)N[C@H](CCC(=O)O)C(=O)N[C@H](C)C(=O)N[C@H](Cc1ccccc1)C(N)=O)C(C)C |  |  | LDLR-knockout mouse, plasma | 45 mg/kg/day | relative to: subcutaneous over oral | plasma level ratio | 298 fold |
| COC(=O)C(c1ccccc1Cl)N1CCC(SCC(=O)c2cccc(OC)c2)C(=CC(=O)O)C1 (mixture of isomers) |  |  | human | concentration not given |  | Cmax | 18 to 30 ng/mL |
| O=S(=O)(c1ccccc1)N1CCCCC1 |  |  | HCl buffer | 24 h, pH 1 |  | recovery | 100% |
| COc1ccc2c(c1)C(=C1Nc3ccccc3C1=NOCC(O)CO)C(=O)N2 (stereo not drawn) |  |  | water |  |  | solubility | 50 mg/mL (≈ 131 mM) |
| C=C[C@@H]1C[C@]1(NC(=O)[C@@H]1C[C@@H](Oc2cc(-c3ccccc3)nc3cc(OC)ccc23)CN1C(=O)[C@@H](NC(=O)OC(C)(C)C)C(C)(C)C)C(=O)NS(=O)(=O)C1CC1 |  |  | rat, plasma | oral, 20 mg/kg, 4 h |  | concentration | 580 nM |
| CC(C)C1=C(O)C(=O)C2=C(C1=O)[C@H](O)[C@@H](O)[C@H]1C(C)(C)CCC[C@]21C | NCI-H460 |  |  |  |  | GI50 | > 30 µM |
| CCC1=C(O)c2c(oc(-c3ccc(OC)c4ccccc34)cc2=O)C(CC)(CC)C1=O | MCF7 | cell growth, SRB |  |  |  | IC50 | 3.59 µM |
| C=C[C@@H]1C[C@]1(NC(=O)[C@@H]1C[C@@H](Oc2nccc3c(OC)cccc23)CN1C(=O)[C@@H](NC(=O)OC(C)(C)C)C(C)(C)C)C(=O)NS(=O)(=O)C1CC1 |  |  | rat | dose not given |  | clearance | 6 mL/min/kg |
| CN1CCN(c2cc(-c3ccccc3CO)c(N(C)C(=O)C(C)(C)c3cc(C(F)(F)F)cc(C(F)(F)F)c3)cn2)CC1 |  |  | healthy volunteers, plasma | oral, dose not given, netupitant-palonosetron, fasted |  | Cmax | 81.8 ng/mL |

A few entries again:
| SMILES | target or system | test | system | conditions | how to read | measurement | value |
| --- | --- | --- | --- | --- | --- | --- | --- |
| COc1ccc2c(c1)C(=C1Nc3ccccc3C1=NOCC(O)CO)C(=O)N2 (stereo not drawn) |  |  | water |  |  | solubility | 50 mg/mL (≈ 131 mM) |
| CC(C)OC(=O)[C@H](CO)NCc1cc(Cl)c(OCc2cccc(-c3ccccc3)c2Br)cc1OCc1cccnc1 |  |  | human liver S9 | 40 min |  | transformation | 100% |
